Literature values as cited in several papers.
Values joined by “and” are separate records of one study, mostly repeats; a detail may differ. Converted amounts (≈) assume the structure as drawn.
PTGS2: Prostaglandin G/H synthase 2 (PTGS2, Homo sapiens, UniProt P35354)
CDK2: Cyclin-dependent kinase 2 (CDK2, Homo sapiens, UniProt P24941)
KDR: Vascular endothelial growth factor receptor 2 (KDR, Homo sapiens, UniProt P35968)
Grin1: Glutamate receptor ionotropic, NMDA 1 (Grin1, Rattus norvegicus, UniProt P35439)
PSMB1/PSMB8/PSMB3: PSMB1/PSMB8/PSMB3 (Homo sapiens, UniProt P20618+P28062+P49720)

Structure (SMILES)	tested on	assay	system	setting	scale	endpoint	result
Cc1ccc(-c2cc(C(F)(F)F)nn2-c2ccc(C(N)=S)cc2)cc1	PTGS2	inhibitor	–	–	–	IC50	7.07 µM
CN1C/C=C/CCOc2cccc(c2)-c2ccnc(n2)Nc2ccc(OCCN3CCCC3)c(c2)C1	CDK2	–	–	–	–	IC50	0.25 µM
O=C1N=C(C(=O)c2c[nH]c3ccccc23)N/C1=C\c1c[nH]c2cc(O)ccc12	HER2 (c-erbB-2) kinase	inhibitor	–	–	–	IC50	7.4 µg/mL
CNC(C)C1CCC(N)C(OC2C(N)CC(N)C(OC3OCC(C)(O)C(NC)C3O)C2O)O1 (centres unmarked)	Enterobacter cloacae	–	clinical isolate RKI-No_113/16	–	–	MIC	1 µg/mL (≈ 2.09 µM)
CC(C)CC(CC(=O)N(C)[C@@H](Cc1ccccc1)C(N)=O)NC(=O)[C@H](CCCNC(=N)N)NC(=O)c1ccc(CN2CCNCC2)c(O)c1 (some centres unmarked)	CDK2	–	–	–	–	IC50	7.42 µM
N[C@@H]1C[C@]1(F)c1ccccc1	tyramine oxidase (Arthrobacter sp.)	enzyme activity, inhibitor	–	pH 7.2, literature data, together with: benzylamine 0.6 mM substrate	–	IC50	190 µM
CO/N=C(\C(=O)N[C@@H]1C(=O)N2C(C(=O)O)=C(CSc3nc(=O)c(=O)[nH]n3C)CS[C@H]12)c1csc(N)n1	SLCO1B1 (Homo sapiens, UniProt Q9Y6L6)	inhibitor	–	–	–	IC50	470 µM
Cc1ccc(F)c(NC(=O)Nc2ccc(Oc3ccnc4cc(C(=O)NCCCN5CCCC5)sc34)cc2F)c1	KDR	inhibitor	–	–	–	IC50	0.003 µM
CN1C/C=C/CCOc2cccc(c2)-c2ccnc(n2)Nc2ccc(N3CCOCC3)c(c2)C1	CDK2	–	–	–	–	IC50	0.074 µM
Cc1c2cc(I)ccc2nc(-c2ccc(Cl)cc2)[n+]1[O-]	PTGS2	inhibitor	–	–	–	IC50	6.05 µM
CC1(C)S[C@@H]2[C@H](NC(=O)[C@H](N)c3ccccc3)C(=O)N2[C@H]1C(=O)O	Enterobacter cloacae	–	clinical isolate RKI-No_34/16	–	–	MIC	> 16 µg/mL
CS(=O)(=O)Nc1cc2occ(NC=O)c(=O)c2cc1Oc1ccccc1	PTGS2	inhibitor	–	–	–	IC50	20 µM
CCn1cc(C(=O)O)c(=O)c2ccc(C)nc21	DNA gyrase (gyrA/gyrB, Escherichia coli, UniProt P0AES4+P0AES6)	enzyme activity, inhibitor	–	–	–	IC50	> 50 µM and > 30 µM
CN1C/C=C/CCOc2cccc(c2)-c2ccnc(n2)Nc2cc(cc(NC(=O)N3CCOCC3)c2)C1	CDK2	–	–	–	–	IC50	0.087 µM
O=C(O)C=Cc1ccc(O)cc1	PTGS2	inhibitor	–	–	–	IC50	36.5 µM
COc1ccc(CNc2c(CO)cnc3c(C4CC4)cc(C#N)cc23)cc1Cl	PDE10A (Homo sapiens, UniProt Q9Y233)	–	–	–	–	IC50	> 10 µM
COc1ccc(N2CCN(Cc3cn4c(-c5ccc(Br)cc5)nnc4s3)CC2)cc1	AIFM2 (Homo sapiens, UniProt Q9BRQ8)	inhibitor	–	–	–	IC50	0.313 µM
CN1CCN(c2ccc3nc(-c4c(N)c5ccccc5[nH]c4=O)[nH]c3c2)CC1	KDR	inhibitor	–	–	–	IC50	0.042 µM
CCN1CCN(Cc2ccc(C(=O)N[C@@H](CCCNC(=N)N)C(=O)NC(CC(=O)NC(Cc3ccsc3)C(N)=O)CC(C)C)cc2)[C@@H](C)C1 (some centres unmarked)	CDK2	–	–	–	–	IC50	6.78 µM
Cc1c(C2(c3ccc(C(F)(F)F)nc3)CC2)c[nH]c1C(=O)N[C@H](C)c1nc[nH]n1	DHODH (Homo sapiens, UniProt Q02127)	–	–	–	–	IC50	> 100 µM
O=C(O)/C(=C/c1c(C(=O)O)[nH]c2cc(Cl)cc(Cl)c12)c1ccccc1	Grin1	–	–	–	–	IC50	0.022 µM

Structure (SMILES)	tested on	assay	system	setting	scale	endpoint	result
O=C(O)/C(=C/c1c(C(=O)O)[nH]c2cc(Cl)cc(Cl)c12)c1ccccc1	Grin1	inhibitor	–	historical reference value	–	IC50	0.022 µM
CC(C)(Oc1ccc(Cl)cc1)C(=O)O	sweet taste receptor	inhibitor	–	together with: sucralose 2.5 mM	–	IC50	28 µM
Nc1ncnc2c1ncn2C1CCCC1	rat adenosine A1 receptor	–	–	–	–	IC50	~70 µM
O=S(=O)(NCCNC/C=C/c1ccc(Br)cc1)c1cccc2cnccc12	RPS6KA5 (Homo sapiens, UniProt O75582)	inhibitor	–	–	–	IC50	0.12 µM
CC1(C)c2cc(OCCN3CCOCC3)ccc2C(=O)c2c1oc1cc(C#Cc3cc(OCC4CC4)ccn3)ccc21	KDR	inhibitor	–	–	–	IC50	0.757 µM
CN(C)c1ccc(/C=C/c2cn(C(=O)/C=C/c3ccccc3)cc2C(=O)c2ccccc2)cc1	PTGS2	inhibitor	–	–	–	IC50	0.55 µM
N=C(NOCC(O)CN1CCCCC1)c1cccnc1 (centres unmarked)	PARP1 (Homo sapiens, UniProt P09874)	enzyme activity, inhibitor	–	–	–	IC50	120 µM
CCOc1cc(C(=O)N[C@@H](CCCNC(=N)N)C(=O)NC(CC(=O)N(C)[C@@H](Cc2ccccc2)C(N)=O)CC(C)C)ccc1CN1CCNCC1 (some centres unmarked)	CDK2	–	–	–	–	IC50	22.6 µM
CCCOC(=O)c1cc(O)c(O)c(O)c1	PTGS2	inhibitor	–	–	–	IC50	16.7 µM
NC(=O)N1CCC(CC(=O)N2CCC([C@H]3c4ncc(Br)cc4CCc4cc(Cl)cc(Br)c43)CC2)CC1	farnesyltransferase	enzyme activity	–	together with: N-ras substrate	–	IC50	0.0028 µM
CCOC(=O)/C=C/c1ccc(OC)cc1	PTGS2	inhibitor	–	–	–	IC50	0.83 µM
CC(C)NCC(=O)N1C/C=C/CCOc2cccc(c2)-c2ccnc(n2)Nc2cccc(c2)C1	CDK2	–	–	–	–	IC50	0.53 µM
NC(=O)c1ncn([C@@H]2O[C@H](CO)[C@@H](O)[C@H]2O)c1O	uncharacterized protein (Trichomonas vaginalis, UniProt A2EYV3)	inhibitor	–	–	–	IC50	> 250 µM
CCOCC(=O)N1CCC[C@H](C(=O)NCc2nc(-c3ccc(C#N)cc3)cs2)C1	PSMB1/PSMB8/PSMB3	enzyme activity, inhibitor	–	–	–	IC50	> 30 µM
Nc1cc(C(F)(F)F)c(-c2nc(N3CCOCC3)nc(N3CCOCC3)n2)cn1	MAP3K14 (Homo sapiens, UniProt Q99558)	enzyme activity	–	10 µM	baseline: untreated	remaining activity	100%
COCC(=O)N1CCC[C@H](C(=O)NCc2nc(-c3ccccc3)cs2)C1	PSMB1/PSMB8/PSMB3	enzyme activity, inhibitor	–	–	–	IC50	> 30 µM
C[C@@H](O[C@H]1OCCN(Cc2n[nH]c(=O)[nH]2)[C@H]1c1ccc(F)cc1)c1cc(C(F)(F)F)cc(C(F)(F)F)c1	neurokinin-1 receptor	–	–	–	–	IC50	0.0001 µM
CN1C/C=C/CCOc2cccc(c2)-c2ccnc(n2)Nc2ccc(OCC(=O)N3CCCC3)c(c2)C1	CDK2	–	–	–	–	IC50	0.39 µM
CCCCCCCCC/C=C/C(=O)CCc1ccc(O)c(OC)c1	PTGS2	inhibitor	–	–	–	IC50	7.5 µM
O=C(O)CCCCCN1C(=O)/C(=C2/C(=O)N(Cc3ccc(F)cc3)c3ccccc32)SC1=S	sheep AANAT	inhibitor	–	literature value	–	IC50	11 µM

Repeated from above:
Structure (SMILES)	tested on	assay	system	setting	scale	endpoint	result
Cc1c(C2(c3ccc(C(F)(F)F)nc3)CC2)c[nH]c1C(=O)N[C@H](C)c1nc[nH]n1	DHODH (Homo sapiens, UniProt Q02127)	–	–	–	–	IC50	> 100 µM
COc1ccc(CNc2c(CO)cnc3c(C4CC4)cc(C#N)cc23)cc1Cl	PDE10A (Homo sapiens, UniProt Q9Y233)	–	–	–	–	IC50	> 10 µM
CN1CCN(c2ccc3nc(-c4c(N)c5ccccc5[nH]c4=O)[nH]c3c2)CC1	KDR	inhibitor	–	–	–	IC50	0.042 µM
CCn1cc(C(=O)O)c(=O)c2ccc(C)nc21	DNA gyrase (gyrA/gyrB, Escherichia coli, UniProt P0AES4+P0AES6)	enzyme activity, inhibitor	–	–	–	IC50	> 50 µM and > 30 µM
